Assay results pooled from the literature.
Compare with care: the assays were run in different laboratories. ± gives the spread as reported.
Cell line: MV4-11

With `Nc1nc(F)nc2c1ncn2[C@@H]1O[C@H](CO)[C@@H](O)[C@@H]1O` the combination index was 0.58 ± 0.06 (72 h, with: cytotoxic drug; below 1 means synergy).
For `COc1cc(C[C@H]2C(=O)OC[C@@H]2Cc2ccc(OC)c(OC)c2)ccc1O`, the IC50 was 4.27 ± 1.68 µM (cell growth, CCK-8; 48 h).
`CCCCNNC(=O)c1ccc(CNC(=O)c2ccccc2)cc1` has an EC50 of 38 to 287 nM (cell growth or viability, resazurin; 48 h).
With `CCn1cc(-c2cc(Cn3ccnc3C)cc3c2CCN([C@H](c2cc(OC)ccn2)C2CC2)C3=O)c(C(F)(F)F)n1` the GI50 was 15 nM (cell growth or viability, ATP luminescence; 5 days).
For `CCc1cc(OC)c2nccc(N3CCc4c(cc(Cn5ccnc5)cc4-c4cn(C)nc4C(F)(F)F)C3=O)c2c1`, the GI50 was less than 10 nM (cell growth or viability, ATP luminescence; 5 days).
For `COc1ccc(C[C@H]2COC(=O)[C@@H]2Cc2ccc(OCC(=O)N3CCC(C(=O)NO)CC3)c(OC)c2)cc1OC`, the IC50 was greater than 5 µM (cell growth or viability, CCK-8; 48 h).
With `COc1cc(C(=O)N(C)C)c2nccc(N3CCc4c(cc(Cn5ccnc5)cc4-c4cn(C)nc4C(F)(F)F)C3=O)c2c1` the GI50 was 420 nM (cell growth or viability, ATP luminescence; 5 days).
The combination index of `Nc1ccn([C@@H]2O[C@H](CO)[C@@H](O)[C@@H]2O)c(=O)n1` is reported as 0.81 ± 0.04 (72 h, with: cytotoxic drug; below 1 means synergy).
For `C[C@@H]1CN(c2ccc(-c3cc(C(=O)NCCOCCOCCOCCOCCNC(=O)Cn4cc(-c5[nH]cc(C(=O)N[C@@H](CC(N)=O)c6ccc(F)c(Cl)c6)c5-c5ccc(Cl)cc5F)cn4)ccc3F)cc2NC(=O)c2c[nH]c(=O)cc2C(F)(F)F)C[C@H](C)N1C`, the EC50 was 2490 nM (cell growth or viability, ATP luminescence; 5 days).
With `COc1ccc(C[C@H]2COC(=O)[C@@H]2Cc2ccc(OCC(=O)NCCCCC(=O)Nc3ccccc3N)c(OC)c2)cc1OC` the IC50 was greater than 5 µM (cell growth or viability, CCK-8; 48 h).
`Cc1ncsc1-c1ccc(CNC(=O)[C@@H]2C[C@H](O)CN2C(=O)[C@@H](NC(=O)C2(F)CC2)C(C)(C)C)c(OCCOc2ccc(CN3CCN(c4cc(-c5ccccc5O)nnc4N)CC3)cc2)c1` gave an IC50 of 1.4 µM (cell growth or viability, ATP luminescence; 7 days).
The GI50 of `Cc1ccc2cncc(N3CCc4c(cc(Cn5ccnc5)cc4-c4cn(C)nc4C(F)(F)F)C3=O)c2c1` is reported as 42 nM (cell growth or viability, ATP luminescence; 5 days).
For `COc1ccc(C[C@H]2COC(=O)[C@@H]2Cc2ccc(OCC(=O)NCC(=O)Nc3ccccc3N)c(OC)c2)cc1OC`, the IC50 was greater than 5 µM (cell growth or viability, CCK-8; 48 h).
